{"data": "Measurements gathered from unrelated publications", "note": "Each line is one published result; not all experiments were run side by side. ± gives the spread as reported."}
{"Molecule": "COP(=S)(OC)Oc1ccc([N+](=O)[O-])c(C)c1", "tested on": "Caco-2", "assay": "viability, MTT", "conditions": "72 h", "measurement": "EC50", "result": "31.6 ± 0.7 µM"}
{"Molecule": "CSCC[C@H](NC(=O)[C@H](CCCCN)NC(=O)[C@H](CCCCN)NC(=O)[C@@H](NC(=O)[C@H](CCCCN)NC(=O)[C@H](CC(=O)O)NC(=O)[C@H](Cc1c[nH]c2ccccc12)NC(=O)[C@H](CC(C)C)NC(=O)[C@H](CCC(=O)O)NC(=O)[C@H](CCCCN)NC(=O)[C@@H](NC(=O)[C@@H](N)Cc1ccccc1)C(C)C)C(C)C)C(=O)NCC(=O)N[C@@H](CO)C(=O)N[C@@H](C)C(=O)N[C@@H](C)C(=O)N[C@@H](Cc1c[nH]c2ccccc12)C(=O)N[C@@H](CO)C(=O)N[C@@H](C)C(=O)N[C@@H](C)C(=O)N[C@@H](CCCCN)C(=O)NCC(=O)N[C@@H](C)C(=O)N[C@@H](Cc1ccccc1)C(=O)N[C@@H](C)C(=O)O", "tested on": "F11 cells", "assay": "intracellular calcium, FLIPR", "conditions": "0.1% BSA", "measurement": "EC50", "result": "39.4 ± 10.7 µM"}
{"Molecule": "CN[C@@](C)(C[18F])C(=O)O", "test system": "SCID mouse DU-145 xenograft, muscle", "conditions": "15 min, post injection", "measurement": "tissue uptake", "result": "0.8 ± 0.2 %ID/g"}
{"Molecule": "N.N.[Cl][Pt][Cl]", "tested on": "HAP1 POLH-deficient", "assay": "cell viability", "conditions": "added: 1 µM", "measurement": "EC50", "result": "0.07 µM"}
{"Molecule": "eburicol", "tested on": "KB cells", "assay": "SRB", "conditions": "3 days", "measurement": "EC50", "result": "> 20 µM"}
{"Molecule": "CC[C@H](C)[C@H](NC(=O)CN)C(=O)NCC(=O)N[C@@H](CC(=O)O)C(=O)N1CCC[C@H]1C(=O)N[C@H](C(=O)N[C@H](C(=O)N[C@H]1CSSC[C@@H]2NC(=O)[C@H](CCCCN)NC(=O)[C@H]([C@@H](C)O)NC(=O)CNC(=O)[C@@H]3CCCN3C(=O)[C@H](CC(C)C)NC(=O)CNC(=O)[C@@H]3CSSC[C@H](NC(=O)[C@H]([C@@H](C)CC)NC(=O)[C@H](C)NC(=O)CNC(=O)[C@H](CO)NC(=O)[C@H](CCCCN)NC(=O)[C@H](CC(C)C)NC1=O)C(=O)N[C@@H](Cc1c[nH]cn1)C(=O)N1CCC[C@H]1C(=O)N[C@@H](C(C)C)C(=O)N[C@@H](Cc1ccccc1)C(=O)N[C@@H](CSSC[C@@H](C(=O)N[C@@H](CCCCN)C(=O)N[C@@H](CCCCN)C(=O)N1CCC[C@H]1C(=O)O)NC2=O)C(=O)N1CCC[C@H]1C(=O)N[C@@H](CCCNC(=N)N)C(=O)N[C@@H](CCCNC(=N)N)C(=O)N[C@@H](Cc1ccc(O)cc1)C(=O)N[C@@H](CCCCN)C(=O)N[C@@H](CCC(N)=O)C(=O)N[C@@H]([C@@H](C)CC)C(=O)NCC(=O)N[C@@H]([C@@H](C)O)C(=O)N3)[C@@H](C)O)C(C)C", "tested on": "LAD2", "assay": "calcium influx", "measurement": "EC50", "result": "7 ± 6.3 µM"}
{"Molecule": "CC(C)C[C@H](NC(=O)CNC(=O)[C@H](CCC(=O)O)NC(=O)[C@H](CCCCN)NC(=O)[C@H](CC(C)C)NC(=O)[C@H](C)NC(=O)[C@H](C)NC(=O)CNC(=O)[C@H](C)NC(=O)[C@H](CCCCN)NC(=O)[C@H](CCC(=O)O)NC(=O)[C@H](CC(C)C)NC(=O)[C@H](CCCCN)NC(=O)[C@H](CCCCN)NC(=O)[C@H](CC(C)C)NC(=O)[C@H](CC(C)C)NC(=O)[C@H](CCCCN)NC(=O)[C@H](Cc1c[nH]c2ccccc12)NC(=O)[C@@H](N)CCCCN)C(=O)N[C@@H](CC(C)C)C(=O)N[C@@H](CCCCN)C(=O)N[C@@H](C)C(=O)NCC(=O)N1CCC[C@H]1C(=O)N[C@@H](C)C(=O)N[C@@H](CC(C)C)C(=O)N[C@@H](C)C(=O)N[C@@H](CC(C)C)C(=O)N[C@@H](CC(C)C)C(=O)NCC(=O)N[C@@H](C)C(=O)N[C@@H](C)C(=O)N[C@@H](C)C(=O)N[C@@H](C)C(=O)N[C@@H](CC(C)C)C(=O)N[C@@H](C)C(=O)N[C@@H](CCCCN)C(N)=O", "tested on": "sheep erythrocytes", "assay": "turbidity", "conditions": "pH 7.5", "measurement": "EC50", "result": "85 ± 8 µM"}
{"Molecule": "CC1(C)[C@H](C(=O)O[C@H](C#N)c2cccc(Oc3ccccc3)c2)[C@@H]1/C=C(\\Cl)C(F)(F)F (racemic)", "tested on": "Caco-2", "assay": "viability, MTT", "conditions": "72 h", "measurement": "EC50", "result": "72.9 ± 2.7 µM"}
{"Molecule": "CC[C@H](C)[C@H](NC(=O)CN)C(=O)N[C@@H](CC(C)C)C(=O)N[C@@H](CCCCN)C(=O)N[C@@H](Cc1ccccc1)C(=O)N[C@@H](CC(C)C)C(=O)N[C@@H](CCC(=O)O)C(=O)N[C@@H](CO)C(=O)N[C@@H](C)C(=O)N[C@@H](CCCCN)C(=O)N[C@@H](CCCCN)C(=O)N[C@@H](Cc1c[nH]c2ccccc12)C(=O)N[C@@H](CC(C)C)C(=O)N[C@@H](CCC(=O)O)C(=O)N[C@@H](C)C(=O)N[C@@H](Cc1ccccc1)C(=O)N[C@@H](CC(C)C)C(=O)N[C@@H](C)C(=O)N[C@@H](CCC(=O)O)C(=O)N[C@H](C(=O)N[C@@H](CCSC)C(=O)N[C@@H](CC(N)=O)C(=O)N[C@@H](CO)C(=O)O)[C@@H](C)CC", "tested on": "sheep erythrocytes", "assay": "turbidity", "conditions": "pH 7.5", "measurement": "EC50", "result": "67 ± 22 µM"}
{"Molecule": "F[P-](F)(F)(F)(F)F.F[P-](F)(F)(F)(F)F.[Ru+2].c1ccc(-c2ccccn2)nc1.c1ccc(-c2ccccn2)nc1.c1csc(-c2ccc(-c3cc4cccnc4c4ncccc34)s2)c1", "tested on": "HL-60", "assay": "cell viability, resazurin", "conditions": "16 h drug-to-light interval, added: visible light 100 J/cm2", "measurement": "EC50", "result": "0.31 ± 0.01 µM"}
{"note": "A few entries again:"}
{"Molecule": "COP(=S)(OC)Oc1ccc([N+](=O)[O-])c(C)c1", "tested on": "Caco-2", "assay": "viability, MTT", "conditions": "72 h", "measurement": "EC50", "result": "31.6 ± 0.7 µM"}
